{"data": "Assay results pooled from the literature", "note": "A part holds a random share of what one study measured. Substitutions count along the parent as printed.", "chain of UniProt Q15819 (whole entry, looked up)": "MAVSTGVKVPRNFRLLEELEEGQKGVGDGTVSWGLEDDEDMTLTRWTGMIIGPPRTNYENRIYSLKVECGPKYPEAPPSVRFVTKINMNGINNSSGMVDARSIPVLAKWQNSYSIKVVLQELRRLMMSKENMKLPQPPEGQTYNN", "chain of UniProt P62256 (whole entry, looked up)": "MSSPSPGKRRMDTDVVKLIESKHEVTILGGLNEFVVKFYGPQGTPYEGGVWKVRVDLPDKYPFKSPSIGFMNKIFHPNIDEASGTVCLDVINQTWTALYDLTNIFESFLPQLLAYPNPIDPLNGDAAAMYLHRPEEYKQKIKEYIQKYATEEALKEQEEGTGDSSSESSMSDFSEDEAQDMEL", "chain of UniProt P60604 (whole entry, looked up)": "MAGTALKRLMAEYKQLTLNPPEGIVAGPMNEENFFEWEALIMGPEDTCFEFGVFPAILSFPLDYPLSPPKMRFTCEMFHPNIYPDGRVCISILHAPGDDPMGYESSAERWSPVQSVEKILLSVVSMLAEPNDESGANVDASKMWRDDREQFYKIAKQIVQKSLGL", "chain of UniProt P61088 (whole entry, looked up)": "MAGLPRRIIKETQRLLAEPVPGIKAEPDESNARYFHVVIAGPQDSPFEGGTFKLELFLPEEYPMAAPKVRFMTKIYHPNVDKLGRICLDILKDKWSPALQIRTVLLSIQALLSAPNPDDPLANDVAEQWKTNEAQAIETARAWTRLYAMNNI", "chain of UniProt Q8WVN8 (whole entry, looked up)": "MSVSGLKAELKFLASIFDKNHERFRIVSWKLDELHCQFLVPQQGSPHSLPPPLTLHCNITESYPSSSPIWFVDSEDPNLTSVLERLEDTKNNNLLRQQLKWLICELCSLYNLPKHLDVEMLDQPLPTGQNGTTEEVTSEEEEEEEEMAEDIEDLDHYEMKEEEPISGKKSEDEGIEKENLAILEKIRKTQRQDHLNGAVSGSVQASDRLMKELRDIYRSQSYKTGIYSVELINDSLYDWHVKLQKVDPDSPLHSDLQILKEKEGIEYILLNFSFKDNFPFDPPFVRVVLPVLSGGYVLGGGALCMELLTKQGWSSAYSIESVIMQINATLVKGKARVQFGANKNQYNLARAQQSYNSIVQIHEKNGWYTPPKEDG", "chain of UniProt Q5VVX9 (whole entry, looked up)": "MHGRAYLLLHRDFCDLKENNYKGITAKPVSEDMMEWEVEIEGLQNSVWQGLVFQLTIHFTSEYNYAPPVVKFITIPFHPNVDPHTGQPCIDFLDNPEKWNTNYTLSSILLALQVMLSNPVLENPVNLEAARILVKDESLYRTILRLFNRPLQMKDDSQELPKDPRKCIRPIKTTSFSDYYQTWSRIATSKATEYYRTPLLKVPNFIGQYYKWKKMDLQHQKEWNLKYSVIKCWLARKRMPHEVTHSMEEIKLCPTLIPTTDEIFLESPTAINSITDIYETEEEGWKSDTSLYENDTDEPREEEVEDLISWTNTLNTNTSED", "chain of UniProt Q13404 (whole entry, looked up)": "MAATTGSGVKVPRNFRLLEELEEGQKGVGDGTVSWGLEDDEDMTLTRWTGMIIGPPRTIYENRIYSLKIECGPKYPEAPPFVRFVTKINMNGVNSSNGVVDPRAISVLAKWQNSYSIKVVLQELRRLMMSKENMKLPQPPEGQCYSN", "chain of UniProt O14933 (whole entry, looked up)": "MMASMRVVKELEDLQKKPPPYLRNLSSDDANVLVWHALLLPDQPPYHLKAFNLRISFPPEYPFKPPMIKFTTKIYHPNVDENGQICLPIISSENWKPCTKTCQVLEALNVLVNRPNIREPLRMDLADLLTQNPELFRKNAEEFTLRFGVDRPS", "chain of UniProt P49427 (whole entry, looked up)": "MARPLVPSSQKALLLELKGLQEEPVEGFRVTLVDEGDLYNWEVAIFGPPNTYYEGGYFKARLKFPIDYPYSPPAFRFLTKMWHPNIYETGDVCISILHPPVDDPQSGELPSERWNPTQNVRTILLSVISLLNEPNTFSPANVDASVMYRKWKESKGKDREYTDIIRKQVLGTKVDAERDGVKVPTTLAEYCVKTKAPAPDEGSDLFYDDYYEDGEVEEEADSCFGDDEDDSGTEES", "chain of UniProt P51965 (whole entry, looked up)": "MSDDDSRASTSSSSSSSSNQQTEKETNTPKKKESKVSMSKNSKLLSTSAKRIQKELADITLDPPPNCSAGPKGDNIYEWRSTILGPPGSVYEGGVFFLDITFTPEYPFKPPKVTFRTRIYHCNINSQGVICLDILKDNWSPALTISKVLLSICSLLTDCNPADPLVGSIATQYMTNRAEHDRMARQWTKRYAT", "chain of UniProt Q96LR5 (whole entry, looked up)": "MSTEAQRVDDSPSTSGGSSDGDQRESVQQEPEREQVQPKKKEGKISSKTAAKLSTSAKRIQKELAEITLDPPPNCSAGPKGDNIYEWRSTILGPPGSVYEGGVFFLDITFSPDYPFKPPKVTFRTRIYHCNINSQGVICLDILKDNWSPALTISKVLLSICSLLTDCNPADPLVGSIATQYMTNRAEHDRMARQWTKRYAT"}
{"data": "Series 1", "Substance": "RNF26 RING domain (UniProt Q9BY78)", "technique": "yeast two-hybrid", "matrix": "yeast", "setting": "mostly zero background", "reference": "not given", "reading": "higher = stronger interaction", "chain of UniProt Q9BY78 (whole entry, looked up)": "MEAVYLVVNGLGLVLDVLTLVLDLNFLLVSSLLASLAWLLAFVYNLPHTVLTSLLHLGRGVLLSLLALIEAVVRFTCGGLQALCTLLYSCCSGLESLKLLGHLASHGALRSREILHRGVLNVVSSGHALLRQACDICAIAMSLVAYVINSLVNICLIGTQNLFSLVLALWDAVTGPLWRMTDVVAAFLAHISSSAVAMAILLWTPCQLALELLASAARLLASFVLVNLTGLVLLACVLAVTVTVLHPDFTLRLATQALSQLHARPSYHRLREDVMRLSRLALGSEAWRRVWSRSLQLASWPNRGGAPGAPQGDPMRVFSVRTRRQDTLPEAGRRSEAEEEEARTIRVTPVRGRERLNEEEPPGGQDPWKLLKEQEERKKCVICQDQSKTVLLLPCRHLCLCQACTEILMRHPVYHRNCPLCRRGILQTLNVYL"}
{"target": "UBE2E2 UBC core domain (UniProt Q96LR5)", "lacZ reporter activity": 0}
{"target": "UBE2V1 UBC core domain (UniProt Q13404)", "lacZ reporter activity": 0}
{"target": "UBE2N UBC core domain (UniProt P61088)", "lacZ reporter activity": 9020}
{"target": "UBE2U UBC core domain (UniProt Q5VVX9)", "lacZ reporter activity": 11700}
{"target": "UBE2L6 UBC core domain (UniProt O14933)", "lacZ reporter activity": 0}
{"target": "UBE2G2 UBC core domain (UniProt P60604)", "lacZ reporter activity": 9780}
{"target": "CDC34 UBC core domain (UniProt P49427)", "lacZ reporter activity": 0}
{"target": "UBE2Q2 UBC core domain (UniProt Q8WVN8)", "lacZ reporter activity": 0}
{"target": "UBE2E1 UBC core domain (UniProt P51965)", "lacZ reporter activity": 2840}
{"target": "UBE2V2 UBC core domain (UniProt Q15819)", "lacZ reporter activity": 0}
{"target": "UBE2H UBC core domain (UniProt P62256)", "lacZ reporter activity": 0}
{"data": "Series 2", "target": "CCND1, cyclin fold, Cln2 fusion (human)", "technique": "yeast growth competition, sequencing", "matrix": "yeast", "setting": "strong parent motif", "reference": "not given", "reading": "higher = stronger binding", "starting sequence": "E2F1 docking peptide (human); PPVKRRLDFETDH; partner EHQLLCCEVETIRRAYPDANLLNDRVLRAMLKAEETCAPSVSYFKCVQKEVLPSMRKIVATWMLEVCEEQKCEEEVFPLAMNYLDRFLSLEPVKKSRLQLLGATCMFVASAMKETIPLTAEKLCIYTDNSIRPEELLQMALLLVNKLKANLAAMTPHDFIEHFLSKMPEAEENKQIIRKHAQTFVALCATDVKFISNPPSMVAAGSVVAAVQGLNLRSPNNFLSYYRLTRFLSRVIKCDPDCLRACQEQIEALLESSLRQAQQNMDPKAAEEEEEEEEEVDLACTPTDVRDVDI"}
{"Change": "T11V", "normalised enrichment score": 2.85}
{"Change": "V3D", "normalised enrichment score": 0.028}
{"Change": "F9I", "normalised enrichment score": 0.318}
{"Change": "D12L", "normalised enrichment score": 2.82}
{"Change": "P2W", "normalised enrichment score": 0.762}
{"Change": "F9R", "normalised enrichment score": 0.259}
{"Change": "R6L", "normalised enrichment score": 1.13}
{"Change": "R6D", "normalised enrichment score": 0.0818}
{"Change": "F9S", "normalised enrichment score": 0.224}
{"Change": "L7T", "normalised enrichment score": 0.225}
{"Change": "L7C", "normalised enrichment score": 0.451}
{"Change": "P2Y", "normalised enrichment score": 1.25}
{"Change": "E10W", "normalised enrichment score": 0.29}
{"Change": "D12S", "normalised enrichment score": 2.79}
{"Change": "P2L", "normalised enrichment score": 1.35}
{"Change": "P2T", "normalised enrichment score": 2.18}
{"Change": "D8I", "normalised enrichment score": 2.61}
{"Change": "D8T", "normalised enrichment score": 2.96}
{"Change": "F9M", "normalised enrichment score": 0.502}
{"Change": "E10Y", "normalised enrichment score": 1.14}
{"Change": "K4I", "normalised enrichment score": 3.57}
{"Change": "D8F", "normalised enrichment score": 2.92}
{"Change": "K4T", "normalised enrichment score": 1.54}
{"Change": "T11Q", "normalised enrichment score": 2.88}
{"Change": "E10N", "normalised enrichment score": 2.95}
{"data": "Series 3", "target": "Prothrombin, mature alpha-thrombin (F2, Homo sapiens, UniProt P00734)", "technique": "aptamer microarray, sandwich", "molecule type": "DNA with 2'F-ANA", "matrix": "in vitro", "concentration": "200 nM", "setting": "whole 15-mer aptamer, many near background", "together with": "Cy3 exosite-II aptamer, 400 nM", "reading": "higher = stronger binding", "oligonucleotide": "GGTTGGTGTGGTTGG"}
{"Modification": "2'F-ANA at 2 3 6 8 12 14 15", "mean fluorescence intensity [a.u.]": 424}
{"Modification": "2'F-ANA at 2 10 11 15", "mean fluorescence intensity [a.u.]": 127}
{"Modification": "2'F-ANA at 1 5 6 9 11 12 14 15", "mean fluorescence intensity [a.u.]": 46.2}
{"Modification": "2'F-ANA at 1 3 4 5 6 7 9 10 11 13 14 15", "mean fluorescence intensity [a.u.]": 51.3}
{"Modification": "2'F-ANA at 4 5 7", "mean fluorescence intensity [a.u.]": 86.8}
{"Modification": "2'F-ANA at 1 3 4 5 6 8", "mean fluorescence intensity [a.u.]": 63.4}
{"Modification": "2'F-ANA at 4 10 11 15", "mean fluorescence intensity [a.u.]": 78.7}
{"Modification": "2'F-ANA at 2 5 7 10 11 12 13", "mean fluorescence intensity [a.u.]": 47.4}
{"Modification": "2'F-ANA at 4 6 8 11 12 15", "mean fluorescence intensity [a.u.]": 428}
{"Modification": "2'F-ANA at 4 9 12 13 15", "mean fluorescence intensity [a.u.]": 337}
{"Modification": "2'F-ANA at 1 2 3 7 11 12 13", "mean fluorescence intensity [a.u.]": 327}
{"Modification": "2'F-ANA at 2 4 6 7 10 14 15", "mean fluorescence intensity [a.u.]": 59.8}
{"Modification": "2'F-ANA at 4 11 14", "mean fluorescence intensity [a.u.]": 118}
{"Modification": "2'F-ANA at 2 3 4 5 6 7 8 9 10 11 13 15", "mean fluorescence intensity [a.u.]": 51.9}
{"Modification": "2'F-ANA at 1 5 6 8 11 14", "mean fluorescence intensity [a.u.]": 82.7}
{"Modification": "2'F-ANA at 1 2 4 7 10 11 12 14 15", "mean fluorescence intensity [a.u.]": 49}
{"Modification": "2'F-ANA at 1 2 4 5 8 9 10 11 13 14", "mean fluorescence intensity [a.u.]": 49.1}
{"Modification": "2'F-ANA at 1 2 5 8 11 13 15", "mean fluorescence intensity [a.u.]": 52.5}
{"Modification": "2'F-ANA at 2 4 5 8 10 14", "mean fluorescence intensity [a.u.]": 143}
{"Modification": "2'F-ANA at 3 4 5 6 9 10 12 13 15", "mean fluorescence intensity [a.u.]": 56.6}
{"Modification": "2'F-ANA at 1 2 4 5 7 10 11 15", "mean fluorescence intensity [a.u.]": 44.7}
{"Modification": "2'F-ANA at 2 5 8 9 10 11 13 14", "mean fluorescence intensity [a.u.]": 51.9}
{"Modification": "2'F-ANA at 2 5 11 12 13 14 15", "mean fluorescence intensity [a.u.]": 49.3}
{"Modification": "2'F-ANA at 1 2 6 7 9 14 15", "mean fluorescence intensity [a.u.]": 54}
{"Modification": "2'F-ANA at 1 2 5 8 9 10 11 14", "mean fluorescence intensity [a.u.]": 50.1}
{"data": "Series 4", "target": "RNA binding protein fox-1 homolog 2, RRM domain, GST-SBP tag (RBFOX2, Homo sapiens, UniProt O43251-10, residues 100-194)", "technique": "RNA Bind-n-Seq", "molecule type": "RNA", "matrix": "in vitro", "concentration": "365 nM", "setting": "natural RNA segment, single round, ends assumed", "reference": "no-protein control", "reading": "higher = stronger binding", "shared flanks, not repeated": "GGGAGUUCUACAGUCCGACGAUC … UGGAAUUCUCGGGUGCCAA", "Residues (chain)": "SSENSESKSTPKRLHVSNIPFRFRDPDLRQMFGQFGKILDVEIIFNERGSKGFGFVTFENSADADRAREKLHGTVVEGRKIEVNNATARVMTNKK"}
{"Oligonucleotide": "GUUCAAGUGAGCAAGCCAUGCCCCCAGCUGCAGUCAGAGUUGAGACCGGCUCUGUGGCUCGUAGCUGGUUCUCUGCUUGCUAGAACAUUCUAACAUUUACACUUUUGUUA", "RBNS enrichment (R)": 0.39}
{"Oligonucleotide": "UUUCAGUUUGCCUUUUAUGUAAAUUUUUUACGUAGCUAUUUUUAUACACUGUAAGCUUUGUUCUGGGAGUGGCUGUUAAUUGGAUGUAUAAUGUAACGUUUUAUUUCAAU", "RBNS enrichment (R)": 0.612}
{"Oligonucleotide": "UUAUUUUUUUUAUUAUUAAAUGAUGUGGUCUAUGGAAAAAUAAAAAUCUGACUUAGUUUUGACUAGCUUUGAGUGCCUUUCCUUGGGAAGAGUUUGGGUGAAAGGGGAAG", "RBNS enrichment (R)": 0.659}
{"Oligonucleotide": "CAUACCUAUUAAAAAAAAAUGUGGAGUUGGAGGGCUAACAUAUUUAAUUAAAUAAAUAAAUAAAUCUGGGUCUGCAUCUCUUAUUAAAUAAAAAUAUAAAAAUAUGUACA", "RBNS enrichment (R)": 1.33}
{"Oligonucleotide": "CCUUCUCCCAGGGCCCGGCUACCCAGGGAGGAGGAGUCUGGUGUAGCCAACAUUCCUGCCCUAACCCUGCCCAUCACCAGCUGGCUGGGCUGGUAUUUAUCUGCAAGGUU", "RBNS enrichment (R)": 0.407}
{"Oligonucleotide": "UUGUCACGUUAGCAACCAGUUUCUACUAUUCUGUGCCCAUCCAGUGUCAAUAUCAUUGAUUUCUUUUUCAUAUGAAGAUCCACAUGCAUUGUAAGAUUGUGAAGAUAUAU", "RBNS enrichment (R)": 0.352}
{"Oligonucleotide": "AGACCCCGUCUCUACAAAAAAAAUUUAAAAAUUAGCUGAGCAUGGUGGCAUGUGCCAGUAGUCCCAGCUACUCGAAAGGCUAAGACUGGAGGAUCGCUUGAGCCAAUGAG", "RBNS enrichment (R)": 0.559}
{"Oligonucleotide": "CUCUAAAGAAACAUUUUGAGCAAGGCAGUUUAGAGAAUCCUAAUGUCUACACUGGCAUAGCACGAGCCAUGUAAGCUUCUUUUUUUUCUAUGCAAGAGUAUUGAUGUAUG", "RBNS enrichment (R)": 11.9}
{"Oligonucleotide": "UUGCUUUAACCUUUGGUUACUUUUAUUCUGUUAAACAGAAUUGAAGAAAGAGUAUUAUACCAGAGUGUAGUAGGCUAGGGUGAUUGUAAGAACUCUGUAAUAGAAUGUCA", "RBNS enrichment (R)": 1.41}
{"Oligonucleotide": "AACAAUCUUGGUCUAUCUUUACCCUUAUACCUUAUCUGUAAUUUACCAUUUAUUGUAUUUGCAAAGCUAGUAUGGUUUUUAAUCACAGUAAAUCCUUUGUAUUCCAGACU", "RBNS enrichment (R)": 0.29}
{"Oligonucleotide": "CUUCAUCAUCUUUGAGAUCAUUAGAGCCUGUAUAAAGGGGAUUAUGGCCCUGCCUUCUAUGUCACACAUAGGAUUUGGUGUCAUUAGUGUUUGCUGUCAUGCCCCAUGAG", "RBNS enrichment (R)": 0.607}
{"Oligonucleotide": "AAACACCCAGAAUCCCAUGUCCUUUGACUUGCAGUGUAGCUAUCUAGAAUGAAACACUUGCCUUGCUAAUCCCAAGUAAGAAGUGACUGGGUGGGGGGUUGCGGGGAGGG", "RBNS enrichment (R)": 0.66}
{"data": "Series 5", "target": "ABI1, truncated, D143A, DHFR fusion (Arabidopsis thaliana)", "technique": "DHFR PCA, deep sequencing", "matrix": "yeast", "setting": "methotrexate growth selection, single substitutions", "together with": "(+)-ABA 17 µM", "reference": "wild-type fitted maximum", "reading": "higher = stronger binding", "starting sequence": "PYL1, truncated, DHFR fusion (Arabidopsis thaliana); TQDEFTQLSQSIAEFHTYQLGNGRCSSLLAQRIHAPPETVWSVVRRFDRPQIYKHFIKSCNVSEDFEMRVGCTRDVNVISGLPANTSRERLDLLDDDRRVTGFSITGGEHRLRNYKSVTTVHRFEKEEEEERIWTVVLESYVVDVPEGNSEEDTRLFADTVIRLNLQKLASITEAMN"}
{"Change": "D144N", "relative binding score [%]": 48.5}
{"Change": "I105W", "relative binding score [%]": -16.7}
{"Change": "G148I", "relative binding score [%]": -4.43}
{"Change": "I33E", "relative binding score [%]": -18.9}
{"Change": "N22T", "relative binding score [%]": 84.5}
{"Change": "I12W", "relative binding score [%]": 14.4}
{"Change": "G71D", "relative binding score [%]": 14.8}
{"Change": "V136L", "relative binding score [%]": 90.3}
{"Change": "S150W", "relative binding score [%]": 3.24}
{"Change": "E147W", "relative binding score [%]": 63.8}
{"Change": "A84S", "relative binding score [%]": 29.1}
{"Change": "E128P", "relative binding score [%]": 87.6}
{"Change": "I12P", "relative binding score [%]": 5.08}
{"Change": "I105S", "relative binding score [%]": 48.1}
{"Change": "D75L", "relative binding score [%]": 91.2}
{"Change": "L93A", "relative binding score [%]": 60.4}
{"Change": "A170C", "relative binding score [%]": 88.3}
{"note": "Repeated from above (series 3):"}
{"Modification": "2'F-ANA at 4 9 12 13 15", "mean fluorescence intensity [a.u.]": 337}
{"Modification": "2'F-ANA at 2 3 4 5 6 7 8 9 10 11 13 15", "mean fluorescence intensity [a.u.]": 51.9}
{"Modification": "2'F-ANA at 1 2 6 7 9 14 15", "mean fluorescence intensity [a.u.]": 54}
{"Modification": "2'F-ANA at 1 5 6 9 11 12 14 15", "mean fluorescence intensity [a.u.]": 46.2}
{"Modification": "2'F-ANA at 2 3 6 8 12 14 15", "mean fluorescence intensity [a.u.]": 424}
{"Modification": "2'F-ANA at 1 2 4 5 8 9 10 11 13 14", "mean fluorescence intensity [a.u.]": 49.1}
{"Modification": "2'F-ANA at 2 5 8 9 10 11 13 14", "mean fluorescence intensity [a.u.]": 51.9}
